Results pooled from the literature.
A part holds a random share of what one study measured.

Study 1 — method: Sort-seq; refers to: YFP reporter; sample: E. coli; setting: PhoQ-PhoP variant library; together with: 10 µM Mg2+; relative to: high Mg2+ state; reading: higher = stronger signaling
Substance: PhoQ, residues 284 288 289 292 302 303 ALASRC
target | fold induction
PhoP, residues 12 14 15 18 19 LHHYF (Escherichia coli, UniProt P23836) | 7.51
PhoP, residues 12 14 15 18 19 TPWTL (Escherichia coli, UniProt P23836) | 1.46
PhoP, residues 12 14 15 18 19 VGHWL (Escherichia coli, UniProt P23836) | 10.4
PhoP, residues 12 14 15 18 19 NFFVT (Escherichia coli, UniProt P23836) | 10.1

Study 2 — method: RNA Bind-n-Seq; molecule type: RNA; sample: in vitro; tested at: 365 nM; relative to: no-protein control; reading: higher = stronger binding
Target: RNA binding protein fox-1 homolog 2, RRM domain, GST-SBP tag (RBFOX2, Homo sapiens, UniProt O43251-10, residues 100-194)
Setting: natural RNA segment, single round, ends assumed
All sequences stand within: GGGAGUUCUACAGUCCGACGAUC … UGGAAUUCUCGGGUGCCAA
Strand | RBNS enrichment (R)
UCCAGGAGAGAGCCAGGAUGCCCAGAUGAACUGACUGAAGGAAAAGCAAGAAACAGUUUCUUGCUUGGAAGCCAGGUACAGGAGAGGCAGCAUGCUUGGGCUGACCCAGC | 2.3
GCACUUAUCUUUUGAGUUUGUACUGUGGUCCAUGUACUUACUAAUAUGUUGCUUUGUAAUUAUUUUCUAGCACUCUGUGUUACAGUUUCAUAUUUGUAUUUAUUUCCAAA | 1.8
ACCCAUACCCUGUGUGAGGGCACAACCAGGCCACGGGACCUUCUAUCCUCUGUAUUUGUCAUUCCUCUCCUAGCCCUCCUGAGGGGUAUCCUCCUAAAGACCUCCAAAGU | 0.434
GGGACUGAGGUUCUUCAGAGAAAGAGUGUGAGCUGAUGACACAGUGGUUUUACACCCACCCCCUGGGCAGGGAGUUUGCACGUAGUUGUGAGCUGUGAGUGGUUAGUGCA | 4.03
AACAGUGAAGGAUUAGCUGAAAAUAUAUGAGCAGGUGACAUUGAGGUUUACUGAAAUAGCCAAUUUGACUGGUGCUUAGACUAUUGUGCAGUAAACCUAAAAGGUAGUGG | 0.51
UUUUUAAUUCAAUCUGGAAUCAGAAAGCGGUGGAUUCUGGCAAAUGGUCCUUGUGCCCUCCCCACUCAUCCCUGGUCUGGUCCCCUGUUGCCUAUAGCCCUUUACCCUGA | 0.413
UCUCAAGACUGAGCACUUCACUAAAUGGUAGAUUUUACUGUUAAAGACCCUACAAUAAGAUUGUUUUAUCUGUACAUUUUUUCAGAUAUUUAACUGUAUAAAAAUGUUCA | 0.496
AAAAUGAUUCCAUUAAUCUUACUCAGAAGACAAAUAAGGAGGUUCUGAUGAAAUCUCUGAAAAAAAAUAAUAAUUUCACACCAUGGCUGCCCUAAAAGGAUCAUUUUAGU | 0.529

Study 3 — method: protein binding microarray; molecule type: double-stranded DNA, one strand shown; sample: in vitro; tested at: not given; relative to: not given; reading: higher = stronger binding
Target: Histone acetyltransferase KAT6A, winged helix 1, GST fusion (KAT6A, Homo sapiens, UniProt Q92794, residues 1-85)
Setting: 8-mer, flanks averaged, mean of 2 arrays, mostly near background
Construct (chain): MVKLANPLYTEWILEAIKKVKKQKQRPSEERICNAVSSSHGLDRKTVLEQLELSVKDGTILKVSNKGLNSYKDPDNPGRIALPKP
Strand | E-score
ATTTCACG | 0.137
GACTCGCA | 0.0244
CAGATTAC | -0.135
GCTAGCAA | -0.031
TCACCGCA | 0.0339
CTGTGTGA | -0.135
ACAGCATA | -0.0911
ACCCCGGA | 0.0147
CTGTGCCC | -0.121
TCAAACAA | -0.077
GCGCCTAA | 0.223
AAGGTGCC | 0.0507
ACCATGAG | -0.00477
AATGGTAT | -0.106
ACCGCTCC | 0.222
CACTTCTC | -0.135
CTATAAAG | -0.0766
GCCGCAAC | 0.329
AAACTTAT | -0.127
TCAGGCAA | -0.293
GATGTAAC | 0.0976
CCCGTAGA | 0.231
GGTATTTA | -0.00374
CAGAAGTC | -0.238

Study 4 — method: protein-binding microarray; molecule type: double-stranded DNA, one strand shown; sample: in vitro; tested at: 250 nM; setting: 60-bp whole probe; together with: salmon DNA 0.4 mg/ml; relative to: random background probes; reading: higher = stronger binding; all sequences stand within: GCCTAGCAC … GTCTTGATTCGCTTGACGCTGCTG
Target: Interferon regulatory factor 5, full length, phosphomimetic (IRF5, Homo sapiens, UniProt Q13568-2, residues 1-514, K96S/S451D/S453D/S456D/S462D)
Strand | log fluorescence [z-score]
GACGATATCAGGACTGGAGACGTGCTA | 0.375
GACGATTTCAGACTGAAGACGTGCTAG | 0.072
TCACTTCTGGGCTGTTTAACTGTGCTA | 0.3
CTGGATCTCAGACTGTGTCCGTGCTAG | -0.25
TTAGGTCGCGGTATCGGTTAGTGCTAG | 3.7
TTAGGTATCGGTATCCGTTAGTGCTAG | 7.18
GACGATCTCAGTTTCGACACGTGCTAG | 5.88
ATAGGTATCGGTATCGGTTAGTGCTAG | 9.46
GACGGTTTCCTTCTCCTGACGTGCTAG | 1.09
TTAAGTCTCCTACTGCTTTAGTGCTAG | 0.204
TTAGGTATCGGTCTCCGTTAGTGCTAG | 6.79
TTTGGTTTCCTTATCCTTTAGTGCTAG | 1.51
TTAGAACTGGGGTATCGATCAGTGCTA | 1.83
GACGGTATCCACTATCGGGACGTGCTA | 2.24
GACGGTTGCCTTTCCCTGACGTGCTAG | 0.139
TTAGGTCACGGTATCGGTTAGTGCTAG | 3.47
TCCCCTCTCTTTCCAACTCTGTGCTAG | 0.282
GACGGACTGGACTGTCGGGACGTGCTA | -0.537
TTAGGAATGCTTATCCTTTAGTGCTAG | -0.127

Repeated from above (study 3):
Strand | E-score
ACCATGAG | -0.00477
AATGGTAT | -0.106
ACCGCTCC | 0.222
CACTTCTC | -0.135
